Measurements gathered from unrelated publications.
Each line is one published result; not all experiments were run side by side.

SMILES = C#C[C@@]1(O)[C@@H](CO)O[C@@H](n2cc(I)c3c(N)ncnc32)[C@@H]1O; cell line = HL-60; assay = cell growth or viability, SRB; conditions = 48 h; quantity = GI50; value = 0.05 µM
SMILES = O=C(/C=C/CCl)O[C@H]1COC(=O)C1; cell line = RAW264.7; assay = NO release, inhibitor; conditions = LPS-stimulated; quantity = IC50; value = 39.3 µM
SMILES = CN=c1nc(-c2ccccc2)n(-c2ccccc2)s1; cell line = HEK293 expressing MOR; assay = cAMP overshoot, inhibitor, HTRF cAMP; conditions = together with: morphine then naloxone; quantity = IC50; value = 16.4 µM
SMILES = CCCCCCCCCCc1cn(Cc2cn([C@H]3C[C@H](OC(=O)OC[C@H]4O[C@@H](n5cc(C)c(=O)[nH]c5=O)C[C@@H]4N=[N+]=[N-])[C@@H](CO)O3)c(=O)[nH]c2=O)nn1; cell line = MT4; assay = cell growth or viability; quantity = IC50; value = 33.2 µM
SMILES = C=CC=C[C@@H]1CC2=CC(=O)CC[C@]2(C)[C@H]2CC[C@]3(C)[C@H](O)CC[C@H]3[C@H]12; cell line = DU-145; assay = cell growth or viability, MTT; conditions = 48 h; quantity = IC50; value = 23.8 µM
SMILES = C[C@H](NCCc1ccc(O)cc1)C(=O)c1ccc(OCc2ccccc2)cc1; cell line = SK-BR-3; conditions = HER2 overexpression; how to read = reference: SK-BR-3 over MCF7, HCT-116; quantity = selectivity ratio; value = > 20 fold
SMILES = Cl.c1ccc(CN2CCC3(CCCc4ccccc43)CC2)cc1; cell line = HEK293 expressing MOR; assay = morphine-induced cAMP overshoot, HTRF cAMP; conditions = 1 µM, together with: NKH 477 25 nM; how to read = reference: morphine control; quantity = efficacy; value = 138%
SMILES = CC(C)[C@@H]1NC(=O)[C@@H]2CSSC[C@H](NC(=O)[C@@H](N)CCCCN)C(=O)N[C@@H](CCCNC(=N)N)C(=O)N[C@@H](CCC(=O)O)C(=O)N[C@H]3CSSC[C@H](NC(=O)[C@H](CCCCN)NC(=O)CNC(=O)[C@H](CC(N)=O)NC1=O)C(=O)N[C@@H](C(C)C)C(=O)N[C@H](C(=O)N1CCC[C@H]1C(=O)N[C@@H](C)C(=O)O)CSSC[C@H](NC(=O)[C@H](CO)NC(=O)[C@@H]1CCCN1C(=O)[C@H](CO)NC(=O)[C@H]([C@@H](C)O)NC(=O)[C@H](CC(N)=O)NC(=O)CNC3=O)C(=O)N[C@@H](Cc1ccc(O)cc1)C(=O)N[C@@H](Cc1ccccc1)C(=O)N[C@@H](CO)C(=O)NCC(=O)N[C@@H](CC(N)=O)C(=O)N2; cell line = human CD4 effector memory T cells; assay = flow cytometry; conditions = 1.5 µM, 30 min pre-incubation, together with: anti-CD3 for 24 h; how to read = reference: stimulated untreated; quantity = CD25 expression; value = ~55%
SMILES = COc1cc(/C=C(\C#N)C(=O)c2ccc(O)c(O)c2)cc(I)c1O; cell line = HEK293 expressing MOR; assay = cAMP overshoot, inhibitor, HTRF cAMP; conditions = together with: morphine then naloxone; quantity = IC50; value = 16.4 µM
SMILES = Cc1cn([C@H]2C[C@H](N=[N+]=[N-])[C@@H](CO)O2)c(=O)[nH]c1=O; cell line = MT4; assay = cell growth or viability; quantity = IC50; value = 116 µM
SMILES = CC(N)Cc1c[nH]c2ccc(OCc3cccs3)cc12 (stereo not drawn); cell line = HepG2; assay = phospholipidosis induction, inducer, high-content imaging; conditions = 24 h, primary screen; quantity = EC50; value = 11.2 µM
SMILES = C=CCN1CC[C@]23c4c5ccc(O)c4O[C@H]2/C(=N/NC(=O)c2ccccc2)CC[C@@]3(O)[C@H]1C5; cell line = HEK293 expressing MOR; assay = morphine-induced cAMP overshoot, HTRF cAMP; conditions = 1 µM, together with: NKH 477 25 nM; how to read = reference: morphine control; quantity = Emax; value = 48%
